Published values collected from several papers.
Protocols differ between the studies behind these lines.
Target: Serine/threonine-protein kinase 32B (STK32B, Homo sapiens, UniProt Q9NY57)

Structure (SMILES) | assay | test system | setting | how to read | endpoint | result
COc1c(Cl)cccc1Nc1c(-c2ccncc2C#C[C@@]2(C)CCCN2C(=O)/C=C/CN(C)C)[nH]c2c1C(=O)NCC2 | cell-free assay, competition with immobilised ligand | – | 3 µM | – | remaining binding | 28%
NC(=O)[C@@H](O)C[C@H]1CCc2sc3ncnc(O[C@H]4CC[C@H](N5CCOCC5)CC4)c3c21 | enzyme activity, inhibitor | – | 10 µM | – | inhibition | -1%
CCN1CCN(Cc2ccc(NC(=O)c3ccc(C)c(NC(=O)c4cncc(-c5cnn(C)c5)c4)c3)cc2C(F)(F)F)CC1 | binding, competition with immobilised ligand | – | 1 µM | – | remaining binding | 81%
CN1CC[C@@H](COc2cnc(C#N)cc2-c2ccn3nc(NC(=O)C4CC4)cc3c2)C1 | enzyme activity, inhibitor | – | 1 µM | – | inhibition | 2%
Cc1ccc(-c2c(/C=C(\C#N)C(=O)NC(C)C)n(CCCO)c3ncnc(N)c23)cc1 | cell-free assay, competition with immobilised ligand | – | 1 µM | – | remaining binding | 87%
Nc1ncc(-c2cc(-c3cnn(CC(F)(F)F)c3)ncc2F)nc1C(=O)NC1CNCC(F)C1 (stereo not drawn) | enzyme activity | – | 1 µM | baseline: DMSO control | remaining activity | 90.3%
COc1cc(Nc2nccc(-c3cnn4nc(OC)ccc34)n2)cc(C(F)(F)F)c1 | binding, competition with immobilised ligand | – | 1 µM | – | remaining binding | 100%
O=C(Cc1ccc(OCc2ccccc2)cc1)NC1(C(=O)O)CCN(C(=O)c2ccc(-c3cccc(Cl)c3)cc2)CC1 | enzyme activity, inhibitor | – | 10 µM | – | activity vs control | 95%
CCN1CCN(Cc2ccc(C(=O)Nc3ccc(C)c(NCc4cnc5[nH]ccc5c4OC)c3)cc2C(F)(F)F)CC1 | binding, competition with immobilised ligand | – | 1 µM | – | remaining binding | 82%
C=CC(=O)N1CCc2ccc(-n3c(=O)ccc4cnc5ccc(-c6cnn(C)c6)cc5c43)cc21 | KINOMEscan | – | 1 µM | baseline: DMSO control | remaining binding | 100%
C=CC(=O)N1CCCC(n2c(=O)c3ncccc3n(Cc3ccc(Oc4ccccc4)cc3)c2=O)C1 (stereo not drawn) | cell-free assay, competition with immobilised ligand | – | 1 µM | – | remaining binding | 84%
CNC1C[S+]2CC[S+]3CC[S+](C1)[Ru-4]321([N]=C=S)[n]2c3ccc(OC)cc3c3c4c(c5cc(F)c[n+]1c5c32)C(=O)NC4=O (stereo not drawn) | KinomeScan | – | 0.1 µM | baseline: untreated | remaining binding | 89%
C=CC(=O)N1Cc2nc(-c3cc(-c4cc(Cl)cnc4Cl)c(F)cc3F)n(-c3ccncn3)c2C1 | cell-free assay | – | 1 µM | – | inhibition | 7.3%
CN1CCN(Cc2ccc(-c3ccc(CO[C@H]4CCC[C@@H]4NC(=O)c4cc(-c5cnn(C)c5)cnc4N)cc3)cc2)CC1 | enzyme activity, inhibitor | – | 0.1 µM | – | inhibition | 7%
CNC(=O)C[C@H](Cc1ccc(C#N)cc1)NC(=O)c1cc(-c2ccc(CN[C@H](C)c3ccc(C)cc3)o2)ccc1Cl | enzyme activity, inhibitor | – | 1 µM | – | activity vs control | 111%
CC(C)=CC1OC(C)(C)C2C=C3C(=O)C(Cl)=CC(O)C3C3C(O)C4OC4C(=O)C132 (stereo not drawn) | cell-free assay, competition with immobilised ligand | – | 10 µM | – | remaining binding | 91%
NC(=O)C[C@H]1CCc2sc3ncnc(O[C@H]4CC[C@H](N5CCOCC5)CC4)c3c21 | enzyme activity, inhibitor | – | 10 µM | – | inhibition | 1%
COc1cc(Nc2nc(C)cc(-c3cnn4nc(OC)ccc34)n2)cc(C(F)(F)F)c1 | binding, competition with immobilised ligand | – | 1 µM | – | remaining binding | 100%
CNC(=O)C1CCN(c2cc(C)c(F)cc2NC(=O)c2ccc(-c3cc(O)ccc3C)c(C)c2)CC1 | binding, competition with immobilised ligand | – | 1 µM | – | remaining binding | 87%
Cc1cnc2nc1Nc1cccc(c1)COC/C=C/COCc1cc(ccc1OCCN1CCOCC1)N2 | binding, competition with immobilised ligand | – | 0.1 µM | – | remaining binding | 100%
Cc1ccc(C(=O)Nc2ccc(CN3CCN(C)CC3)c(C(F)(F)F)c2)cc1C#Cc1cnc2cccnn12 | target engagement, NanoBRET | human cells | – | – | Hill slope | 0.598

A few entries again:
Structure (SMILES) | assay | test system | setting | how to read | endpoint | result
Cc1ccc(C(=O)Nc2ccc(CN3CCN(C)CC3)c(C(F)(F)F)c2)cc1C#Cc1cnc2cccnn12 | target engagement, NanoBRET | human cells | – | – | Hill slope | 0.598
C=CC(=O)N1CCc2ccc(-n3c(=O)ccc4cnc5ccc(-c6cnn(C)c6)cc5c43)cc21 | KINOMEscan | – | 1 µM | baseline: DMSO control | remaining binding | 100%
